Measured values of several laboratories.
Each numbered part is a random draw from the data of one study; scales do not carry over between parts.

Block 1 — method: EMSA with sequencing; molecule type: double-stranded DNA, one strand shown; matrix: in vitro; concentration: 10 and 20 nM; baseline: negative control set to 0; direction: higher = stronger binding
Target: Hepatocyte nuclear factor 3-alpha (Foxa1, Mus musculus, UniProt P35582, residues 1-468, full length assumed)
Chain of UniProt P35582 (whole entry, looked up): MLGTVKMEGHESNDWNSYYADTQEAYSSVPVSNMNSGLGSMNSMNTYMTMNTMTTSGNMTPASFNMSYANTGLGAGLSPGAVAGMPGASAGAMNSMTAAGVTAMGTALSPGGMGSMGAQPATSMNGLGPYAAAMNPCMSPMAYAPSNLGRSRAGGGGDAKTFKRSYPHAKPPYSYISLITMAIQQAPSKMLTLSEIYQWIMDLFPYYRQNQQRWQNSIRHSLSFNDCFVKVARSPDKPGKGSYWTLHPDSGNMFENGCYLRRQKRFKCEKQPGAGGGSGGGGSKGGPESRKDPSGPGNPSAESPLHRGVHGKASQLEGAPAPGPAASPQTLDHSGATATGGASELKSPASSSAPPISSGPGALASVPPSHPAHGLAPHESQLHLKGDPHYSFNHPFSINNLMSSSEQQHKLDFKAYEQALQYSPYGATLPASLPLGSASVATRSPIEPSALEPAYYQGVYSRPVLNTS
Setting: whole designed probe, mean of two concentrations, ends assumed
| Sequence | normalised bound fraction [ratio] |
| --- | --- |
| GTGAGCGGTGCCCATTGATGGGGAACTAAAAAGCATTTAACCTAAGTACTGTTTTAGAGGTGACAAATTTAGTGGTGTGTCCCCATGAGAAAATATTTCAAACAATACCAAAATTCCTTGTTTACATATTACATCATCGTTCCTAGAAAATATATCTAAATCCTCTATTTTAGGTATAAAAGCAAAAAAAAGTAAGGTTTCAGTTGATTTCACTTAAAATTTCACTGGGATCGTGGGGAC | 0.295 |
| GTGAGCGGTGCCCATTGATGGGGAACCTAATTTACATGTAACTATAAAGTTCTTTATGTTAAGGAAACATGATTTGTCCAGCATAAGAAAATACTTTATTTCTTAGAAAGCAATATTCCTTGTTTACCTTGCTTCTTCTAAGGGAAGAAAAATTATATCTCTTATAATTACAGAATCATTTTCTGTTTTGGGGGATTTGGAGTTAGTGAGACTAAAAAATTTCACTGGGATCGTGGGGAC | 0.227 |
| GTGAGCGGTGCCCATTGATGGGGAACTATTTACTGACCTAAACTTGGCTGTAACAGCTCTTACTCCCTCAGAGGAGGTACATGAGAGTTAAATGAGGTAATGAATTGCGCAGCCATCTGTAAACATGACGAGGCTTTGTAAACAGAACTGGGACAACACAAACATTCGCTAGAATAATTCTCCCACTCCTTGAAAGAGTACACATCCCTTACCCCACCTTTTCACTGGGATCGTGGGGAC | 0.398 |
| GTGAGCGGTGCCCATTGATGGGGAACATCTTCCCCCTCTTCCTTGCCCCACCAGCTCACCTACGGGGGTTATTTGCACAAAGGAAAATAAATAAAGCCGGCATTCGTTAACCCTCTTCACGCGCATACTGCTGTTTGCTCTGCATCTAACATGGTCCTTACGCGAGGCGTGGCTCCGGGAGAGCAAAGCACCGTGTCAGGCGCATGATCCGGGGTGGCCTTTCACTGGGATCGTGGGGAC | 0.391 |
| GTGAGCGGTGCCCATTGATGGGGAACTCCACAGTAGAAACGAAGGAGATGACAGATACCCCGGCACCAAAACTGACACCAGGTTTTTGTTGCTTCTTCCACTATATAATGGAGAAGTTCTGTTTACTCTATACTGTTAGTTGTGCAACACATTGGCTTAAGGAAACCCAAGAAACTGAATCACATCAAAGGTATGTCAGAGGTATGTGAACCAGAGCAATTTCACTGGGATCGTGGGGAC | 0.3 |
| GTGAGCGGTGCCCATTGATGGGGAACTAAACATGCTATGAACCAGTGCTAAGTTATACACCAGGCTGGCTTCAAAAATGATTATCAAACTGTGTAGGGATAACTGAAACCAGTAACAGAGTAAACACTGTGTTAGGATAATAGGGTGCTGACAGGGCGAATGCCTTCCAGCTGAATCATTTTTCCATTCCTGGAATGTTTTGAAATGGAGAATTAAGCATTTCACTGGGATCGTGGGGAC | 0.3 |
| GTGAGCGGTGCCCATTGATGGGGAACCTACTGCACAGAAAATTATCTGCTAAAATTCTGTGCAATGTGCATTGTTATTCTCTAAGTTTTTTTTTAAATAGCTATTTTGTAAAAATCCTAAGTAAACATGACTTGTAATGCAGGATACAAACTTTCATTTGTCTGTGACATCTGCAAGAGAAAGATGTGATGTCCCCATTTAAAGAGGAATAGCTGATTATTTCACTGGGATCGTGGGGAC | 0.391 |
| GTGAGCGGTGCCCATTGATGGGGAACAATTTTTATTTGAAGGTGCCATTTTTCAACATATTCAGATGCTTGTGAGTGCCATTGATTCTGTATCATATGAACAATGGCAATACCTTCCATGTTTACATAATATTAAAAACCATGTTAAGACTGAATATTTGGTGTAATGGTGCATCACATTATTCTAGCTTCCATACTAGTTGTTTTATTTGTTTGTTTTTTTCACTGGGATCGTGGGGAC | 0.544 |

Block 2 — method: RNA Bind-n-Seq; molecule type: RNA; matrix: in vitro; concentration: 365 nM; baseline: no-protein control; direction: higher = stronger binding
Target: RNA binding protein fox-1 homolog 2, RRM domain, GST-SBP tag (RBFOX2, Homo sapiens, UniProt O43251-10, residues 100-194)
Setting: natural RNA segment, single round, ends assumed
Construct (chain): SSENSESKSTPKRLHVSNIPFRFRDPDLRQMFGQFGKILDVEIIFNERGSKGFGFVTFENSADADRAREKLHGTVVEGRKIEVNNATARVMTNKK
| Sequence | RBNS enrichment (R) |
| --- | --- |
| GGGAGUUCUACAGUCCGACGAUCGCUGAUGUUGAUGACAGAAUUUAUUUGGUUGCCUUGUGUGUCAAUUGAAUGCAUACUAAACUGUAAAAAAAAUUUAUUUACAGCAUUGAAAAUUCAGAAGUUAAUGGUUUUGGAAUUCUCGGGUGCCAA | 0.471 |
| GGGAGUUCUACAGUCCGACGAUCUAAAUAUUAUAUAAAUAUUGUAUAAAACAUUAAAAGUUAACUAUGUAAGAUAUUAUUUCUGAAACAGUUUUAGUUAUAUCCACUAUGAUUAUAAACUGUGUCUCGACCUGUGGAAUUCUCGGGUGCCAA | 0.441 |
| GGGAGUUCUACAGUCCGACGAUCUCGACUCCACACCCUGCCGCUACUUCACGUGAGAGGCUGCAGGAACAGGUGGGCUGCCGCCCAUGGAACCGGUGGCUGUUUCUCUACCCUUCACAUCAAGCUGGCCUUGCUGGAAUUCUCGGGUGCCAA | 0.435 |
| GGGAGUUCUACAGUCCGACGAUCCAUUAGCCUGUGCAAAACCAUCUGUUUGGGGAGCACACUCUUCCAUUAUGCUUGGCACAUAGAUCUCCCUGUGGUGGGAUUUUUUUUUUCCCUUUUUUUGUGGGGGAGGGUGGAAUUCUCGGGUGCCAA | 0.345 |
| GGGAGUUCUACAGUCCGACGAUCGUUUAGUUUUGUGUGUAUCUUACAGUAUGCAUGUUCUGAAAUUAUUUGUGAUCCUGAUAUGUCACAUAUAAUAGCUUUGUUACCUGGAGUAUUUGAUUAACCUAAACAGUUGGAAUUCUCGGGUGCCAA | 2.39 |
| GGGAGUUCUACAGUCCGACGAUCAAAGUGGCUCCAGGGACUUAAGUGAAGUUCACUACUCUUAUCAGCAGUGCUGGAGAGCGGAGGAUUGGGGGCGGGGAUUCAGACUUUCUGGGUUCACAUCUGUGUUUUGCUGGAAUUCUCGGGUGCCAA | 0.58 |
| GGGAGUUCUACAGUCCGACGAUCACCUAGGGUGGCCUGAGAGGGCGGUGGGUAUGCGAGACCAGCACGGUGACUCUGUCCAGCUCCCGCUGUGGCCGCACGCCUCUCCCUGCACUCCCUCCUGGAGCUCUGUGUGGAAUUCUCGGGUGCCAA | 0.966 |
| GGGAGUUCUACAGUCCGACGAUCCUACAAUUUUCGACUUAACUUCAAAACACAGUAUUGUGUUAUCUAUCACAUAACAGGACCAUGUUUUUAACCUACCAUCAAGAGCCUGUAUUUUGAGUUAUUCCAACAGAUGGAAUUCUCGGGUGCCAA | 0.548 |
| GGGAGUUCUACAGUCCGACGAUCGCUGAAGUGGCCACCAGGGGUCAGCAGUGCUCCAGUUGCUGGGCUUAAAGCUUCCUGGUGCCUGUCUGCCAGGUCAUGGAGGAUUCCCCAAUCUGGCAUCCCCACGAUGCUGGAAUUCUCGGGUGCCAA | 0.212 |
| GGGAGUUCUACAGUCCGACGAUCAAGCUAAUAUUUUUUUAAAGUUACAUUAAGAUUUUUUCUCUUUUGCAGCUACAUUUGAAAGUGAUAGAAUAAAGAGAUUUUAAUGAGUUAUCACUUUUUCAGCUGAUAUAUGGAAUUCUCGGGUGCCAA | 0.679 |
| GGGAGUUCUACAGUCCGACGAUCUAGUGUAGCUGAAGAGGAAGCUAUACUAUUUUCUGUUUACUGUAUUUUGCUCCCUAUUUUAUGCUUUUUAAAAAUCUUUCACAGUGACUCACUUGAUUGAGCAUAUUGAUUGGAAUUCUCGGGUGCCAA | 1.41 |
| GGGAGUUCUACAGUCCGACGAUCCCUGCCUCUCUGCCAUGAGGGCUUUGGAUCAGAUUCCUCUUCUCGCCAGGAUGAGGACACGCACUGCCCUCCAUAGACACAGAUGAAGGGGUGGGGGUCAUUCAGCUCGAUGGAAUUCUCGGGUGCCAA | 0.284 |

Block 3 — method: protein binding microarray; molecule type: double-stranded DNA, one strand shown; matrix: in vitro; concentration: not given; baseline: not given; direction: higher = stronger binding
Target: Histone acetyltransferase KAT6A, both winged helices, GST fusion (KAT6A, Homo sapiens, UniProt Q92794, residues 1-181)
Setting: 8-mer, flanks averaged, mean of 2 arrays, mostly near background
Residues (chain): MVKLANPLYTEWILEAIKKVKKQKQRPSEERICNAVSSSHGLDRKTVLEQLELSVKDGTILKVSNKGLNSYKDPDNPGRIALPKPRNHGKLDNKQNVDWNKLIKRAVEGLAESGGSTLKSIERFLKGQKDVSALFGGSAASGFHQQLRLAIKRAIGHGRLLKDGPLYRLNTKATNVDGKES
| Sequence | E-score |
| --- | --- |
| GCATTCCA | -0.0209 |
| ATGTATGC | 0.103 |
| TTGGCAAA | -0.011 |
| AGTTTGAC | 0.0279 |
| CCGGTACG | 0.195 |
| CTAATATC | -0.0772 |
| AGCTCGTG | -0.059 |
| GGTAACAA | -0.0756 |
| GTAAAAGA | -0.0736 |
| CAAGCGCC | 0.305 |
| ATAATACG | 0.0364 |
| CACAGCGG | 0.0783 |
| TCCCGGAA | 0.166 |
| AGTAAACG | 0.0849 |
| ATTGACAG | 0.0905 |
| CTCCCATA | -0.216 |
| CATGCGAC | 0.152 |
| CTGGCTCC | -0.0528 |
| AATCGCTC | 0.0285 |
| AACTTAGG | -0.158 |
| ATATCGAC | -0.0477 |

Block 4 — method: universal PBM; molecule type: double-stranded DNA, one strand shown; matrix: in vitro; concentration: not given; direction: higher = stronger binding
Target: Sal-like protein 4, full length isoform B (SALL4, Homo sapiens, UniProt Q9UJQ4-2, residues 1-616)
Setting: 8-mer, flanks averaged, mean of replicates
Target sequence (chain): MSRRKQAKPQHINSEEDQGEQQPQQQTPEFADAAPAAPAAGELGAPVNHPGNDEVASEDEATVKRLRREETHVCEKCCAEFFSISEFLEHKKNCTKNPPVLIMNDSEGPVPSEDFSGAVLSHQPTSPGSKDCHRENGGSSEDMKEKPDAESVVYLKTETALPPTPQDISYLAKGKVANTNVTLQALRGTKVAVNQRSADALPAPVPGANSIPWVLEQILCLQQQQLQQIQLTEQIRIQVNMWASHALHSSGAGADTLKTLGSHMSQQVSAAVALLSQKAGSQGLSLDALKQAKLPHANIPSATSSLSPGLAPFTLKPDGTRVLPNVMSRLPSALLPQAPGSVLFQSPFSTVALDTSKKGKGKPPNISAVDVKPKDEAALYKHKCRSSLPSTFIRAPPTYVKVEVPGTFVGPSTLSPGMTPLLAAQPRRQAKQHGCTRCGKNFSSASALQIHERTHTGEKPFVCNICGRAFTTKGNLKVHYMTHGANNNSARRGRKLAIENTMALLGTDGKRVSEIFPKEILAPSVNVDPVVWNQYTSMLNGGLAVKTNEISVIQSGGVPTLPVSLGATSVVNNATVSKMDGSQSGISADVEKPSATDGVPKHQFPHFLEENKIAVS
| Sequence | E-score |
| --- | --- |
| ACAAGAGG | -0.0836 |
| ATTGAGTA | 0.263 |
| AATGGGAA | 0.14 |
| CACTCCGG | -0.166 |
| GTGAAATA | 0.199 |
| TATGTCCA | 0.00099 |
| CTTCAGAC | -0.0854 |
| AAACCCGT | -0.0809 |
| ACCTGCGC | -0.198 |
| ATGCAAGC | 0.126 |
| AAACTAGA | 0.154 |
| ACATCATC | 0.103 |
| AGTTTTGG | 0.15 |
| CAAGGATC | 0.0477 |
| ACGCTGCC | -0.272 |
| AATGGCAC | -0.0313 |
| GTCCGACA | -0.144 |
| AAATCCAT | 0.243 |
| GTTTACTA | 0.193 |
| TAGAGACA | 0.0572 |
| ATTGTAAG | 0.235 |
| ATAGCGGC | -0.158 |
| GTCCGAAC | -0.202 |
| GCATGGTA | -0.0312 |
| AATGGCGT | -0.0887 |
